{"data": "Results gathered from unrelated publications", "note": "Compare with care: the assays were run in different laboratories.", "chain of UniProt P20309 (whole entry, looked up)": "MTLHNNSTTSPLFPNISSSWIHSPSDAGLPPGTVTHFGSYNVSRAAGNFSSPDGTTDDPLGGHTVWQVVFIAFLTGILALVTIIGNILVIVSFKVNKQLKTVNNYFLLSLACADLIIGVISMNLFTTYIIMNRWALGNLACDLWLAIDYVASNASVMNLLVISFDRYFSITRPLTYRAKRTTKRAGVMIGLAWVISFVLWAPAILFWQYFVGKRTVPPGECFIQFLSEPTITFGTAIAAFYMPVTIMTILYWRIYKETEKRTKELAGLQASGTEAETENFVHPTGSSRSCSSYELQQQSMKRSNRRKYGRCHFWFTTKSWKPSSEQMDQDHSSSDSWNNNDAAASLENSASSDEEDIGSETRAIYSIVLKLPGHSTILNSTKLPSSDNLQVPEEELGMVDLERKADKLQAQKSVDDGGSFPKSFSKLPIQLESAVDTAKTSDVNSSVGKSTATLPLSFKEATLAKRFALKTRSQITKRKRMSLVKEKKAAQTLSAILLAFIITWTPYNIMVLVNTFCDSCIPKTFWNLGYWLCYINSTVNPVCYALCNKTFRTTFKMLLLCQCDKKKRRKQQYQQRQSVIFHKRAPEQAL", "chain of UniProt Q13546 (whole entry, looked up)": "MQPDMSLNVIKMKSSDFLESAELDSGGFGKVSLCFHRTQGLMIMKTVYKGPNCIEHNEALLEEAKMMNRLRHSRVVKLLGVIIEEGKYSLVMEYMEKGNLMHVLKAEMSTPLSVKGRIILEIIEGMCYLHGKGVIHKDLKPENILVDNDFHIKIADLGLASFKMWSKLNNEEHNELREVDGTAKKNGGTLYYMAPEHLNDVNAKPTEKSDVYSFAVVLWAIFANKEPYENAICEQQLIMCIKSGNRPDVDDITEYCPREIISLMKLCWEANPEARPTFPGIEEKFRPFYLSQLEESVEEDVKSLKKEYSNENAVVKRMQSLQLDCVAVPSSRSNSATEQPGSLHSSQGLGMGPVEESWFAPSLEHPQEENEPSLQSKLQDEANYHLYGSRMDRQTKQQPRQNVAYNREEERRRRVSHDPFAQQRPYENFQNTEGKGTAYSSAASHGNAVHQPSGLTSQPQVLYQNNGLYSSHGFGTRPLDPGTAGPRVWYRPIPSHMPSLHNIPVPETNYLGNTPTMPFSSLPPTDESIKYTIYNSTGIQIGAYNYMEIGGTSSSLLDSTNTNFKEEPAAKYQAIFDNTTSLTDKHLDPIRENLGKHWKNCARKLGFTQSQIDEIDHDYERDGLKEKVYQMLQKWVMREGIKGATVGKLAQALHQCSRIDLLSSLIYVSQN", "chain of UniProt Q0P543 (whole entry, looked up)": "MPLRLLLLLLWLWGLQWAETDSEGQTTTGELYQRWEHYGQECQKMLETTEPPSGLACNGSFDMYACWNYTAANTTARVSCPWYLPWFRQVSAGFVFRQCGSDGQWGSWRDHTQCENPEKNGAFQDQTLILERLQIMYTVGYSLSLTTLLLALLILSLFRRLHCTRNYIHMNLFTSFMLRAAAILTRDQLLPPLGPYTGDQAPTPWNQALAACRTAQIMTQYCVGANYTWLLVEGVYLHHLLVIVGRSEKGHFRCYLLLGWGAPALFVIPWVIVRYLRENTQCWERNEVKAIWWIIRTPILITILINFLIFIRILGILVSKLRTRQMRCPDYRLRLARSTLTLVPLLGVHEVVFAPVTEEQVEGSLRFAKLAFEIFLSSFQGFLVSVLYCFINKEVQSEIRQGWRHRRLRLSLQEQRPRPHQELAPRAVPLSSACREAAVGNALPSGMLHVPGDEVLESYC", "chain of UniProt P34972 (whole entry, looked up)": "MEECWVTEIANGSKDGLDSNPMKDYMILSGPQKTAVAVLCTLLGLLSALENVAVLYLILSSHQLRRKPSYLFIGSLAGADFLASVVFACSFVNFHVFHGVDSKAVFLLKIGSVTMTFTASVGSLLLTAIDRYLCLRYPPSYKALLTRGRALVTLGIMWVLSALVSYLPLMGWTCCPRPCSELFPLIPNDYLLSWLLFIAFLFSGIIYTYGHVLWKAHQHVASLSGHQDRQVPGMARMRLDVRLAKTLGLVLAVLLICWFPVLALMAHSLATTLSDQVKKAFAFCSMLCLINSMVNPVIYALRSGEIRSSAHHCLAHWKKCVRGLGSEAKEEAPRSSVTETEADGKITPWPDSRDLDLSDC", "chain of UniProt P40337 (whole entry, looked up)": "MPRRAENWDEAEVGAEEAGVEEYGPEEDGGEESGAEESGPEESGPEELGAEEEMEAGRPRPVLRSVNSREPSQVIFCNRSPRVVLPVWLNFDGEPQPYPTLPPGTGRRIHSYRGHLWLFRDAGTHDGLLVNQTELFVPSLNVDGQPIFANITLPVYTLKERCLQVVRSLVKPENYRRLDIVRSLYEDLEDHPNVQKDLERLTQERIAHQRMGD", "chain of UniProt P21554 (whole entry, unmodified, looked up)": "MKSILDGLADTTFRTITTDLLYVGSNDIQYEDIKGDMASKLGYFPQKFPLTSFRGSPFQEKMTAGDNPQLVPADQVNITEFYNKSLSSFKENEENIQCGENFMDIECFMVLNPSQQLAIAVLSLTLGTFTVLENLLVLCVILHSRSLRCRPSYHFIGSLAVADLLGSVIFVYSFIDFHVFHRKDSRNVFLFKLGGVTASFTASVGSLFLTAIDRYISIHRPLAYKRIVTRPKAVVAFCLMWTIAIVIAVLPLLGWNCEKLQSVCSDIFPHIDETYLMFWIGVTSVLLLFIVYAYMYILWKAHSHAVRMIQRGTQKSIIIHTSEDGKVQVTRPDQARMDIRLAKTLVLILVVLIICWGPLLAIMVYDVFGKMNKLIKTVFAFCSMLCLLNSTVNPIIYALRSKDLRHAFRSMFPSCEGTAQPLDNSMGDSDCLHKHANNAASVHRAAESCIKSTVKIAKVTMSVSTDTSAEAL", "chain of UniProt P9WGR1 (whole entry, looked up)": "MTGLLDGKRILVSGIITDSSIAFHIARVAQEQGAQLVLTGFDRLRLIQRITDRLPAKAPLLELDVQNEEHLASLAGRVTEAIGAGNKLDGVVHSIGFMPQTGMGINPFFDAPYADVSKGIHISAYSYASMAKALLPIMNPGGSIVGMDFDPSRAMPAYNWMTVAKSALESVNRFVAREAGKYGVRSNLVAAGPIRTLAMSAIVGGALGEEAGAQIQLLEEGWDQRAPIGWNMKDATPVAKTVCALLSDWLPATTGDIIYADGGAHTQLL"}
{"SMILES": "CCOC(=O)C1C(OC(c2ccc(Cl)cc2)c2ccc(Cl)cc2)CC2CCC1N2C (single isomer, unassigned)", "target": "CHRM3 (Homo sapiens, UniProt P20309)", "test": "ligand displacement, radioligand", "measurement": "Ki", "value": "1920 nM"}
{"SMILES": "COc1ccc(C=CC(=O)c2ccccc2)cc1OC", "target": "inhA (Mycobacterium tuberculosis, UniProt P9WGR1)", "test": "binding, fluorescence", "setting": "pH 8", "measurement": "Kd", "value": "10300 nM"}
{"SMILES": "CC1=CC(C)=[N+]2C1=Cc1ccc(CCC(=O)NCCCn3cc(-c4ccc5c(c4)CCN5C(=O)Cc4cccc(OC(F)(F)F)c4)c4c(N)ncnc43)n1[B-]2(F)F", "target": "RIPK1 (Homo sapiens, UniProt Q13546)", "test": "binding, TR-FRET", "measurement": "Kd", "value": "608 nM"}
{"SMILES": "CC[C@H](C)[C@H](NC(=O)[C@H](CO)NC(=O)[C@H](Cc1ccc(O)cc1)NC(=O)[C@H](CC(=O)O)NC(=O)[C@H](CO)NC(=O)[C@@H](NC(=O)[C@H](Cc1ccccc1)NC(=O)[C@@H](NC(=O)CNC(=O)[C@@H]1CCCN1C(=O)[C@H](C)NC(=O)[C@@H](N)Cc1ccc(O)cc1)[C@@H](C)O)[C@@H](C)CC)C(=O)N[C@@H](C)C(=O)N[C@@H](CCSC)C(=O)N[C@@H](CC(=O)O)C(=O)N[C@@H](CCCCN)C(=O)N[C@H](C(=O)N[C@@H](CCCNC(=N)N)C(=O)N[C@@H](CCC(N)=O)C(=O)N[C@@H](CCC(N)=O)C(=O)N[C@@H](CC(=O)O)C(=O)N[C@@H](Cc1ccccc1)C(=O)N[C@H](C(=O)N[C@@H](CC(N)=O)C(=O)N[C@@H](Cc1c[nH]c2ccccc12)C(=O)N[C@@H](CC(C)C)C(=O)N[C@@H](CC(C)C)C(=O)N[C@@H](C)C(=O)N[C@@H](CCC(N)=O)C(=O)N[C@@H](CCCCN)C(=O)NCC(=O)N[C@@H](CCCCN)C(=O)N[C@@H](CCCCN)C(=O)N[C@@H](CC(N)=O)C(=O)N[C@@H](CC(=O)O)C(=O)N[C@@H](Cc1c[nH]c2ccccc12)C(=O)N[C@@H](CCCCN)C(=O)N[C@@H](Cc1c[nH]cn1)C(=O)N[C@@H](CC(N)=O)C(=O)N[C@@H](CC(C)C)C(=O)N[C@H](C(=O)N[C@@H](CCC(N)=O)C(=O)O)[C@@H](C)O)C(C)C)[C@@H](C)CC", "target": "Gastric inhibitory polypeptide receptor (Mus musculus, UniProt Q0P543)", "test": "agonist", "measurement": "EC50", "value": "38 nM"}
{"SMILES": "Cc1cc(O)cc(-c2nc(Nc3cc(C(F)(F)F)cc(C(F)(F)F)c3)ncc2-c2ccnc(-c3ccccc3)c2)c1", "target": "SRC (Homo sapiens, UniProt P12931)", "test": "biochemical", "measurement": "EC50", "value": "> 100000 nM"}
{"SMILES": "CCCCCn1cc(C(=O)c2ccc3ccccc3c2)c2ccccc21", "target": "CNR1 (Homo sapiens, UniProt P21554, I267L/L193I/L359V)", "test": "Gαi1 engagement, agonist, BRET", "measurement": "EC50", "value": "81.3 nM"}
{"SMILES": "CC1=C[C@H]2c3c(O)cc(CCc4ccccc4)cc3OC(C)(C)[C@H]2CC1", "target": "CNR2 (Homo sapiens, UniProt P34972)", "test": "ligand displacement, radioligand", "setting": "cell membranes", "measurement": "Ki", "value": "225 nM"}
{"SMILES": "CC1=CC(C)=[N+]2C1=Cc1ccc(CCC(=O)NCCOCCOCCOCCOCC(=O)N[C@H](C(=O)N3C[C@H](O)C[C@H]3C(=O)NCc3ccc(-c4scnc4C)cc3)C(C)(C)C)n1[B-]2(F)F", "target": "von Hippel-Lindau disease tumor suppressor, with elongin B/C (VHL, Homo sapiens, UniProt P40337)", "test": "binding, TR-FRET", "setting": "150 min, added: BODIPY FL VH032", "measurement": "Kd", "value": "3.01 nM"}
